Experimental data from different studies.
Lines come from different studies, so protocols differ. ± marks the error that the study gave.

| Structure (SMILES) | assay | test system | setting | scale | measurement | value |
| --- | --- | --- | --- | --- | --- | --- |
| CC(=O)Nc1ccc(OC(=O)CCC(=O)[O][Pt-2]23([O]C(=O)CCC(=O)Oc4ccc(NC(C)=O)cc4)([NH2+][C@@H]4CCCC[C@H]4[NH2+]2)[O]C(=O)C(=O)[O]3)cc1 | flow cytometry | BALB/c mouse, 4T1 tumour model, spleen | dose not given | relative to: CD3+ cells | CD8+ T cells | 9.32% |
| CCCC[C@H](NC(=O)[C@@H](NC(=O)[C@H](CC(=O)O)NC(=O)[C@H](CCC(N)=O)NC(=O)[C@H](CC(C)C)NC(=O)[C@H](CC(C)C)NC(=O)[C@H](CCCN)NC(=O)[C@H](CCCNC(=N)N)NC(=O)[C@H](C)NC(=O)[C@H](CO)NC(=O)[C@H](CC(C)C)NC(=O)[C@H](CCC(N)=O)NC(=O)[C@H](CC)NC(=O)[C@H](CC(C)C)NC(=O)[C@@H](NC(=O)[C@H](CCCN)NC(=O)[C@H](CCCNC(=N)N)NC(=O)[C@H](Cc1ccc(O)cc1)NC(=O)[C@H](CO)NC(=O)[C@H](CCC(N)=O)NC(=O)[C@@H](NC(=O)[C@H](Cc1ccccc1)NC(=O)[C@@H](NC(=O)[C@H](C)NC(=O)[C@H](CC(=O)O)NC(=O)[C@H](C)NC(=O)CCc1ccc(O)cc1)[C@@H](C)CC)[C@@H](C)O)C(C)C)[C@@H](C)CC)C(=O)N[C@@H](CC(=O)O)C(=O)N[C@@H](CCCNC(=N)N)C(=O)NC | GH release | rat, male, serum | subcutaneous, 3 µg/kg, 30 min | relative to: reference GHRH agonist JI-38 | relative potency | 1.09 |
| Cc1ccc(C(=O)Nc2ccc(CP(=O)(O)O)cc2CP(=O)(O)O)cc1NC(=O)c1cccc(NC(=O)Nc2cccc(C(=O)Nc3cc(C(=O)Nc4ccc(CP(=O)(O)O)cc4CP(=O)(O)O)ccc3C)c2)c1 | APTT | normal human plasma | 1.5-fold increase |  | concentration for APTT increase | 311 µM |
| Cc1cc(O)c(C=O)c2c1C(=O)Oc1c(CO)c(O)c3c(c1O2)C(O)OC3=O (stereo not shown) |  | rat, male, streptozotocin-induced diabetes, cauda epididymis | 5 mg/kg, 9 weeks |  | sperm motility | 61.3 ± 1.03% |
| CNC1CCC(N(Cc2cccc(-c3ccncc3)c2)C(=O)c2sc3ccccc3c2Cl)CC1 (stereo not shown) |  | chick neural plate explants | 22 h |  | concentration inducing MNR2 | 10 to 200 nM |
| CC[C@H]1[C@@H](O)[C@@H]2[C@H](CC[C@]3(C)[C@@H]([C@H](C)CCOS(=O)(=O)[O-])CC[C@@H]23)[C@@]2(C)CC[C@@H](O)C[C@@H]12.[Na+] |  | ob/ob NASH mouse model | oral, 3 mg/kg once daily, 8 weeks |  | body weight | 52.6 ± 0.8 g |
| N=C(N)NCCC[C@@H](N)C(=O)NCC(=O)N[C@H](CCC(=O)O)C(=O)N[C@H](CCCNC(=N)N)C(=O)N1CCC[C@@H]1C(=O)N1CCC[C@@H]1C(=O)N[C@H](CCCNC(=N)N)C(N)=O | Evans blue | nude mouse U87 subcutaneous xenograft, tumour | iv, 4 µmol/kg, 30 min | relative to: PBS | Evans blue permeation increase | 30.5% |
| O=C1/C(=C/c2ccc(O)cc2)Oc2c1c(O)cc(O)c2-c1ccc(O)c(O)c1 | ABTS scavenging, absorbance |  |  |  | EC50 | 1080 µM |
| C[C@@H](O)[C@@H]1NC(=O)[C@H](CCCCN)NC(=O)[C@@H](Cc2ccc(NC(N)=O)cc2)NC(=O)[C@H](Cc2ccc(NC(=O)[C@@H]3CC(=O)NC(=O)N3)cc2)NC(=O)[C@H](NC(=O)[C@H](Cc2ccc(Cl)cc2)NC(=O)CN2CCN(CC(=O)O)CCN(CC(=O)O)CCN(CC(=O)O)CC2)CSSC[C@@H](C(=O)N[C@H](Cc2ccc(O)cc2)C(N)=O)NC1=O [gallium-68 labelled] | PET/CT | human neuroendocrine tumour patients, bone lesions | 60 min |  | SUVmax | 6 ± 3 |
| CCCC[C@H](NC(=O)[C@@H](NC(=O)[C@H](CC(=O)O)NC(=O)[C@H](CCC(N)=O)NC(=O)[C@H](CC(C)C)NC(=O)[C@H](CC(C)C)NC(=O)[C@H](CCCN)NC(=O)[C@H](CCCNC(=N)N)NC(=O)[C@H](C)NC(=O)[C@H](CO)NC(=O)[C@H](CC(C)C)NC(=O)[C@H](CCC(N)=O)NC(=O)[C@H](CC)NC(=O)[C@H](CC(C)C)NC(=O)[C@@H](NC(=O)[C@H](CCCN)NC(=O)[C@H](CCCNC(=N)N)NC(=O)[C@H](Cc1ccc(O)cc1)NC(=O)[C@H](CO)NC(=O)[C@H](CC(N)=O)NC(=O)[C@@H](NC(=O)[C@H](Cc1c(F)c(F)c(F)c(F)c1F)NC(=O)[C@@H](NC(=O)[C@H](C)NC(=O)[C@H](CC(=O)O)NC(=O)[C@@H](C)NC(=O)CCc1ccc(O)cc1)[C@@H](C)CC)[C@@H](C)O)C(C)C)[C@@H](C)CC)C(=O)N[C@@H](CO)C(=O)N[C@@H](CCCNC(=N)N)C(=O)NCCCC(N)=O | GH release | rat, male, serum | subcutaneous, 3 µg/kg, 15 min | relative to: reference GHRH agonist JI-38 | relative potency | 1.21 |

A few entries again:
| Structure (SMILES) | assay | test system | setting | scale | measurement | value |
| --- | --- | --- | --- | --- | --- | --- |
| CC(=O)Nc1ccc(OC(=O)CCC(=O)[O][Pt-2]23([O]C(=O)CCC(=O)Oc4ccc(NC(C)=O)cc4)([NH2+][C@@H]4CCCC[C@H]4[NH2+]2)[O]C(=O)C(=O)[O]3)cc1 | flow cytometry | BALB/c mouse, 4T1 tumour model, spleen | dose not given | relative to: CD3+ cells | CD8+ T cells | 9.32% |
